Experimental data collected from several papers.
± gives the spread as reported.
Organism: Salmonella typhimurium

Structure (SMILES)	assay	test system	conditions	how to read	measurement	result
CC(=O)N1CCC(C(=O)N2CCN3C(=O)c4cc(-c5ccccc5)ccc4NC(=O)C3C2)CC1 (stereo not drawn)		TA100	5000 µg/plate, with rat liver S9		revertants per plate	112
CC(C)N(C)N=O	mutagenicity, Ames plate incorporation	TA1535	1500 µg/plate, 3 d, without S9, methanol		revertant colonies per plate	23 ± 3
O=[N+]([O-])c1ccc(N2CCC(NCCC(O)c3ccc(F)c4ccccc34)CC2)c(C(F)(F)F)c1 (stereo not drawn)	genotoxicity, SOS/umu test	TA1535/pSK1002	0.008 mg/mL, 4 h, without S9, full range		induction factor	0.55
O=NN1CCN(C2CCCC2)CC1	mutagenicity, Ames plate incorporation	TA1535	50 µg/plate, 3 d, without S9, methanol		revertant colonies per plate	15 ± 4
O=[N+]([O-])c1ccc(N2CCN(CCC(O)c3ccc(F)cc3)CC2)c(C(F)(F)F)c1 (stereo not drawn)	SOS/umu test	TA1535/pSK1002	0.125 mg/mL, 4 h, without S9, full range		survival	56.7%
CN(CC(C)(C)C)N=O	mutagenicity, Ames plate incorporation	TA98	1500 µg/plate, without S9, methanol		revertant colonies per plate	27.7 ± 7
N#C[C@@]1(n2ccc(N)nc2=O)O[C@H](CO)[C@@H](O)[C@H]1O		TA100	600 nM, without S9, unit not given	baseline: control	viability	106
COc1cccc(-c2n[nH]c(SCc3ccccn3)n2)c1OC	Ames test, plate incorporation	TA1537	0.031 mg/plate, without S9		revertant colonies per plate	7
O=[N+]([O-])c1ccc(NC2CCNCC2)c(C(F)(F)F)c1	SOS/umu test	TA1535/pSK1002	0.031 mg/mL, 4 h, with S9, full range		survival	107%
Cc1cc(C(=O)NC(C)(C)COc2cccc3c2C(N)=NS(=O)(=O)N3)cc(C)n1	Ames test, initial	TA98	5.00 µg/plate	baseline: solvent control	revertant ratio	1.2
Fc1ccc(C2=CCNCC2)cc1	genotoxicity, SOS/umu test	TA1535/pSK1002	0.031 mg/mL, 4 h, without S9, full range		induction factor	0.8
CN(N=O)c1ccc(F)cc1	mutagenicity, Ames plate incorporation	TA1535	2500 µg/plate, 3 d, without S9, methanol		revertant colonies per plate	14.3 ± 7
